Published values collected from several papers.
Lines come from different studies, so protocols differ. Numbers after ± are the reported error. Ends that are not written are not given here. * marks the point of attachment.

Substance = CC(=O)O[C@H]1C(=O)[C@@]2(C)[C@H]([C@H](OC(=O)c3ccccc3)[C@]3(O)C[C@H](OC(=O)[C@H](O)[C@@H](NC(=O)c4ccccc4)c4ccccc4)C(C)=C1C3(C)C)[C@]1(OC(C)=O)CO[C@@H]1C[C@@H]2O; test system = female NSG mice Hep3B xenograft; conditions = iv, 24 mg/kg, 336 h, daily for 5 days; quantity = tumour growth inhibition; result = 79%
Substance = CCSSC[C@H](NC(=O)[C@H](CC(=O)O)NC(=O)[C@H](Cc1ccccc1)NC(=O)[C@H](CCC(=O)O)NC(=O)[C@@H](NC(C)=O)[C@@H](C)CC)C(=O)NCC(=O)N[C@@H](Cc1cn(CCCNC(=O)CCCCC[N+]2=C(/C=C/C=C/C=C3/N(C)c4ccc(S(=O)(=O)[O-])cc4C3(C)C)C(C)(C)c3cc(S(=O)(=O)O)ccc32)nn1)C(=O)NCc1ccc(C(=O)NCCCOc2cnc(C#N)nc2)cc1; test system = BALB/c mice with CT26 tumour, CT26 tumour; conditions = intravenous, 5 nmol, day 16, together with: anti-PD1 200 µg plus anti-CTLA4 100 µg; how to read = baseline: non-responders; quantity = tumour fluorescence; result = increased
Substance = Palmitoyl-PCSTSSMA (N-palmitoyl; Palmitoyl = CCCCCCCCCCCCCCCC(=O)*); test system = AsPC-1, male SCID mice, subcutaneous AsPC-1 xenograft; conditions = intratumoral, 500 µg/mouse/day, 3 weeks; quantity = tumour weight; result = 167 ± 29.5 mg
Substance = CCN(CC)c1ccc2nc3ccc(N=Nc4ccc(N(C)CCCC(=O)NCCCC[C@@H](NC(=O)CNC(=O)[C@H](CCCNC(=N)N)NC(=O)[C@@H](NC(=O)CNC(=O)[C@H](CC(C)C)NC(=O)[C@@H]5CCCN5C(=O)CNC(=O)CCCCC[N+]5=C(C=CC=CC=C6N(CC)c7ccc8c(S(=O)(=O)[O-])cc(S(=O)(=O)O)cc8c7C6(C)C)C(C)(C)c6c5ccc5c(S(=O)(=O)[O-])cc(S(=O)(=O)O)cc65)C(C)C)C(=O)NCC(=O)NCC(=O)NCCOCCOCCOCCOCCOCCOCCOCCOCCOCCOCCOCCO)cc4)cc3[n+](-c3ccccc3)c2c1; test = NIR fluorescence imaging; test system = nude mice SCC-7 tumour; conditions = iv, 10 nmol, 2 h; how to read = baseline: muscle; quantity = tumour to background ratio; result = 5.55 ± 0.75
Substance = COc1cccc2c1C(=O)c1c(O)c3c(c(O)c1C2=O)C[C@@](O)(C(=O)CO)C[C@@H]3O[C@H]1C[C@H](N)[C@H](O)[C@H](C)O1; test system = mice bearing T47D xenografts; conditions = 5 mg/kg once weekly, 24 days after inoculation, treated 2 weeks; quantity = tumour volume; result = 45.3 ± 14.2 mm3
Substance = COc1cccc2c1C(=O)c1c(O)c3c(c(O)c1C2=O)C[C@@](O)(C(=O)CO)C[C@@H]3O[C@H]1C[C@H](N)[C@H](O)[C@H](C)O1; test system = BALB/c nude mice, HCT-8/ADR xenograft; conditions = peritumoral, 2 mg/kg every two days, 22 d; quantity = tumour growth inhibition; result = 79.1%
Substance = COc1cccc2c1C(=O)c1c(O)c3c(c(O)c1C2=O)C[C@@](O)(C(=O)CO)C[C@@H]3O[C@H]1C[C@H](N)[C@H](O)[C@H](C)O1; test system = mice, BT-474 xenograft; conditions = intraperitoneal, 1.5 mg/kg, week 3, after second treatment; how to read = baseline: pretreatment; quantity = tumour volume; result = 114 ± 61.8%
Substance = COc1cccc2c1C(=O)c1c(O)c3c(c(O)c1C2=O)C[C@@](O)(C(=O)CO)C[C@@H]3O[C@H]1C[C@H](N)[C@H](O)[C@H](C)O1; test system = mice with solid Ehrlich carcinoma; conditions = ip, 5 mg/kg; quantity = tumour volume; result = 112 ± 9.2 mm³
Substance = CCN(CC)CCCC(C)Nc1ccnc2cc(Cl)ccc12 (stereo not shown); test = tumour weight; test system = nude mice, ECa-109 xenograft; conditions = intraperitoneal, 60 mg/kg every other day, 2 weeks, together with: sulforaphane 5 mg/kg; quantity = tumour growth inhibition; result = 24.3%
Substance = CC(=O)O[C@@]12CO[C@@H]1C[C@H](O)[C@@]1(C)C(=O)[C@H](O)C3=C(C)[C@@H](OC(=O)[C@H](O)[C@@H](NC(=O)OC(C)(C)C)c4ccccc4)C[C@@](O)([C@@H](OC(=O)c4ccccc4)[C@H]21)C3(C)C; test system = mice bearing PC-3 xenografts; conditions = 5 mg/kg once weekly, 25 days after inoculation, treated 3 weeks; quantity = tumour volume; result = 197 ± 44.8 mm3

Excerpt of the above:
Substance = COc1cccc2c1C(=O)c1c(O)c3c(c(O)c1C2=O)C[C@@](O)(C(=O)CO)C[C@@H]3O[C@H]1C[C@H](N)[C@H](O)[C@H](C)O1; test system = mice, BT-474 xenograft; conditions = intraperitoneal, 1.5 mg/kg, week 3, after second treatment; how to read = baseline: pretreatment; quantity = tumour volume; result = 114 ± 61.8%
